Assay results gathered from unrelated publications.
Protocols differ between the studies behind these lines. “And” joins repeats or separate records; there may be more than shown.
MAPK8: Mitogen-activated protein kinase 8 (MAPK8, Homo sapiens, UniProt P45983)
Chain of UniProt P45983 (whole entry, looked up): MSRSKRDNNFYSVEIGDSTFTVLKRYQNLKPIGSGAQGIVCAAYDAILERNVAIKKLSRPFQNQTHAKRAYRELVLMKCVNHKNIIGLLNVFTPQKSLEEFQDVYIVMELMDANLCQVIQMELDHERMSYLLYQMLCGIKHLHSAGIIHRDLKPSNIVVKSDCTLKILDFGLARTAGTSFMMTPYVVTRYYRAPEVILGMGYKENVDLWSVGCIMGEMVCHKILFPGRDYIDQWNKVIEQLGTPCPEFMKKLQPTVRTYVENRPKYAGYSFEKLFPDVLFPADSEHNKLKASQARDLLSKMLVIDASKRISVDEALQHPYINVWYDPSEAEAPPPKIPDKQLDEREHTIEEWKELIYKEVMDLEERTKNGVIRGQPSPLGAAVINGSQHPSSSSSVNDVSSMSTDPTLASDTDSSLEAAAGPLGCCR
IL1RL2: Interleukin-1 receptor-like 2 (IL1RL2, Homo sapiens, UniProt Q9HB29)
Chain of UniProt Q9HB29 (whole entry, looked up): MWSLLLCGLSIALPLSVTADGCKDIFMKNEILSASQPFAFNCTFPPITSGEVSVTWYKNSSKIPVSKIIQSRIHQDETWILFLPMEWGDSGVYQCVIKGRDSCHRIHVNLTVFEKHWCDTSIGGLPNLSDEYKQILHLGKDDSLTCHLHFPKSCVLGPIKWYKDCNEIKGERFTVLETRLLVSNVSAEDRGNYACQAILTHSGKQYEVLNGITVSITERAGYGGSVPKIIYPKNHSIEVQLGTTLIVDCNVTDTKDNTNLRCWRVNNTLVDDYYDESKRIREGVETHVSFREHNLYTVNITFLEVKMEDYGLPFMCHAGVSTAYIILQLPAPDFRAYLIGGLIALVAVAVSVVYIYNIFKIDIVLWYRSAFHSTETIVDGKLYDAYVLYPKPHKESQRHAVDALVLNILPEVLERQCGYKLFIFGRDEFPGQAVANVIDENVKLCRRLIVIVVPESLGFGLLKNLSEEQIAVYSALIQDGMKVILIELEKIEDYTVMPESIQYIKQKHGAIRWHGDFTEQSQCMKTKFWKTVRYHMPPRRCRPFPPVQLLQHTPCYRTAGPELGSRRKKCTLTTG
Chain of UniProt Q9UKR3 (whole entry, looked up): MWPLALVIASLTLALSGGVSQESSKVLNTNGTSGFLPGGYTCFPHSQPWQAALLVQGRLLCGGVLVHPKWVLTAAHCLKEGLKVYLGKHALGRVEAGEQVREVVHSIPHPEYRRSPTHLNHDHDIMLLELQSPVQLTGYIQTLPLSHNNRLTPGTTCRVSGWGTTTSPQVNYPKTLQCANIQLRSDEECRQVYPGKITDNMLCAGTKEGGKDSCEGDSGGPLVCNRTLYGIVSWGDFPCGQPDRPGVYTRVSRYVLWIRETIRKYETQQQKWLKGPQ
Chain of UniProt P22612 (whole entry, looked up): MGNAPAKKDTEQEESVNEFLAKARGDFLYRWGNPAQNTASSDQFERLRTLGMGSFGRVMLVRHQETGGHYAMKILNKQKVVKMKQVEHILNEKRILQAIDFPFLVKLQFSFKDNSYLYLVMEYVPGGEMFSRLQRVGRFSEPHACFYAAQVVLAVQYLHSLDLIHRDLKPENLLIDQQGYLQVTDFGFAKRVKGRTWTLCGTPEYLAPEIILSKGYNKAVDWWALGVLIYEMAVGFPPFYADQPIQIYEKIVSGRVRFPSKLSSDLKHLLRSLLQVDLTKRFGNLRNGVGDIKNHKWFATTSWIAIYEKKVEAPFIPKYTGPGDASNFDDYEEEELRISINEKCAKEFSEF
Chain of UniProt O75417 (whole entry, looked up): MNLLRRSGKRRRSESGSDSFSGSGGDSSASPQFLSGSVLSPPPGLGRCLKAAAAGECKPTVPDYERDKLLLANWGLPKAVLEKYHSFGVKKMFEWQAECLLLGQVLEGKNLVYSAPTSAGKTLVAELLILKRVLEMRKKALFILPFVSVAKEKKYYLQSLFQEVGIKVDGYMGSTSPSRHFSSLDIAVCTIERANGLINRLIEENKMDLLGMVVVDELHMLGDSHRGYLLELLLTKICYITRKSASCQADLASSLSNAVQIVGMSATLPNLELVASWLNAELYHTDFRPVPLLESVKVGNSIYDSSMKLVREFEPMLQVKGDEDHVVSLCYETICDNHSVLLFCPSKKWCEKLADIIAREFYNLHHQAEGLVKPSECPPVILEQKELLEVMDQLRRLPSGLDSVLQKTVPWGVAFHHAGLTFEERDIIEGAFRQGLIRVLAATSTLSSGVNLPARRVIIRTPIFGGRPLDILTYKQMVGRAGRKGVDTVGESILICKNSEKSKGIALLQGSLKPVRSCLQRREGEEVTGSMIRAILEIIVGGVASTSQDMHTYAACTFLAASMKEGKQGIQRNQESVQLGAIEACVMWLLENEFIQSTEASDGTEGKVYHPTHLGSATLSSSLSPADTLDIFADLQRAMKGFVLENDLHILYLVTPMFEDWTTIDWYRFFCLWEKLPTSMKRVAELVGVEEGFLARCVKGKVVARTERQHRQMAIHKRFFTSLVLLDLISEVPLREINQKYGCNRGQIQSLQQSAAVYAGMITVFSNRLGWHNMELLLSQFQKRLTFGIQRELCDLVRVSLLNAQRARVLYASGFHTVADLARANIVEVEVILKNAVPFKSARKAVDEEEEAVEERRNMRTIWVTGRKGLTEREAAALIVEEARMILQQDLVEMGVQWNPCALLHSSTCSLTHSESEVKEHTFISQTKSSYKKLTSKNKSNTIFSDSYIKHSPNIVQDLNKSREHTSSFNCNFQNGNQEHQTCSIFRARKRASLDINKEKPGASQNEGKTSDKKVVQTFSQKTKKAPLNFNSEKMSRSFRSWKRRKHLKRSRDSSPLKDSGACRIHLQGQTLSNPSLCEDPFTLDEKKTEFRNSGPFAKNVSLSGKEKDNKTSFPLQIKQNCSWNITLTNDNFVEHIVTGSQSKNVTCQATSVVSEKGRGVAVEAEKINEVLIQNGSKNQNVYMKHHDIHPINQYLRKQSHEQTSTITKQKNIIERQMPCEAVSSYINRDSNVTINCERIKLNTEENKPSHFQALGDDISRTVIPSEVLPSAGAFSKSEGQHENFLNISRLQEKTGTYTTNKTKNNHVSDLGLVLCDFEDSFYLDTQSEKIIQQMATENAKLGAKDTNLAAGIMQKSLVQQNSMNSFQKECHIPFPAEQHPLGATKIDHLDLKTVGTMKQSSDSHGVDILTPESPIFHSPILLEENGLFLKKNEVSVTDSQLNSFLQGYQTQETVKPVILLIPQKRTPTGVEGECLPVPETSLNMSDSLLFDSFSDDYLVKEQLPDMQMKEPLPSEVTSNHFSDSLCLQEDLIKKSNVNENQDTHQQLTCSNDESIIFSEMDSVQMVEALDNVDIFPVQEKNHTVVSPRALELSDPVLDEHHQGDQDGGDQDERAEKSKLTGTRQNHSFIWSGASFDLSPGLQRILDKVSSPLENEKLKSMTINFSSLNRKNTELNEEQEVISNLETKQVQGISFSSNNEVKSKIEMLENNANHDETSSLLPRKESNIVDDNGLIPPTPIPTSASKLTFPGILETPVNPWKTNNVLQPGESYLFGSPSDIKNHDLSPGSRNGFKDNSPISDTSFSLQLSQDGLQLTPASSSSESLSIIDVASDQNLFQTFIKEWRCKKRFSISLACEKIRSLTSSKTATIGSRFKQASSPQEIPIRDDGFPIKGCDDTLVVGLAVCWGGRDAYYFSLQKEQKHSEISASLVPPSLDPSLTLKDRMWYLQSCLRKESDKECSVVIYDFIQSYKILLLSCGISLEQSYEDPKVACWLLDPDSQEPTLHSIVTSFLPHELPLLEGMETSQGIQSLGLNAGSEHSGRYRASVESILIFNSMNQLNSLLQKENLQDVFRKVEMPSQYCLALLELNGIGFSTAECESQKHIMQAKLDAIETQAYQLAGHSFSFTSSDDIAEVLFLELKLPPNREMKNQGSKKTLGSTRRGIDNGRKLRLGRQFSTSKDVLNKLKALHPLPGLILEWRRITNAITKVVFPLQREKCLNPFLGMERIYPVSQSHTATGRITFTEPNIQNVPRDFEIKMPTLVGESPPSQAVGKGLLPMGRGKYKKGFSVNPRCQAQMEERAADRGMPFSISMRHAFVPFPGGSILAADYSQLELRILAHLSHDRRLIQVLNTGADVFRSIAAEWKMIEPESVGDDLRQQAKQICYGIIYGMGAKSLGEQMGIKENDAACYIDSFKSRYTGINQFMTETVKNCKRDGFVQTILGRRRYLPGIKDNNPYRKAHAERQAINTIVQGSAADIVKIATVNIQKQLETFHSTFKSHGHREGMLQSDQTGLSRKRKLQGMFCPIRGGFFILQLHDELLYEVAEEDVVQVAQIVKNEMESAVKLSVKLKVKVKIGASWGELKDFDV
Chain of UniProt Q8TD08 (whole entry, looked up): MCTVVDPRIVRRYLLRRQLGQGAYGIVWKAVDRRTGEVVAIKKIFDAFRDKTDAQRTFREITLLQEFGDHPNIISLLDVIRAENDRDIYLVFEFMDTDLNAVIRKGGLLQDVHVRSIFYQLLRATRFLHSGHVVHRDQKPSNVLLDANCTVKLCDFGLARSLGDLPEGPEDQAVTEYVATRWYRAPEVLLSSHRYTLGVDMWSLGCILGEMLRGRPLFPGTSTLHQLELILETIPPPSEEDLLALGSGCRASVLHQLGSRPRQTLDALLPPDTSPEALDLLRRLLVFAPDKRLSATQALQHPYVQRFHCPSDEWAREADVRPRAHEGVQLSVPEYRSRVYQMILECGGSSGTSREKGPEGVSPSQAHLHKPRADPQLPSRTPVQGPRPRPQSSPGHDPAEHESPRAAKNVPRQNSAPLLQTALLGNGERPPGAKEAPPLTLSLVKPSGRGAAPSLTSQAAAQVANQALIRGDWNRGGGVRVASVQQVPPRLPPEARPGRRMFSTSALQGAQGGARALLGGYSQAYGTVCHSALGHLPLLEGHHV

Compound	target	test	system	setting	how to read	remaining activity
COc1ccc(NC(=O)Nc2ccc3c(c2)C(=O)N(C(C)CO)CC(C)C(CN(C)Cc2ccc4c(c2)OCO4)O3)cc1 (stereo not shown)	ABL1 (Homo sapiens, UniProt P00519, M351T)	kinase activity		0.03 µM	baseline: control	108%
C=C1C[C@@]2(C(=O)OC)C=C(C(=O)Nc3cccc(C(=O)Nc4ccc(Nc5nccc(-c6cccnc6)n5)c(C)c4)c3)C(=O)[C@@H]1C2	MAPK8	kinase activity, inhibitor		0.5487 µM, unit not given, together with: 10 mM glutathione	baseline: no inhibitor	0.247
CC(C)[C@@H]1NC(=O)[C@H](Cc2ccccc2)NC(=O)CSC[C@@H](C(N)=O)NC(=O)[C@H](CCC(=O)O)NC(=O)[C@H](CO)NC(=O)[C@H](Cc2c[nH]c3cccc(Cl)c23)NC(=O)[C@H](C2CCCCC2)NC(=O)[C@H](C(C)C)NC(=O)[C@H](Cc2ccc(O)cc2)NC(=O)[C@H](CC(=O)O)NC(=O)[C@H](Cc2c[nH]c3ccccc23)NC(=O)[C@H](Cc2ccc(N)nc2)NC(=O)[C@H](Cc2c[nH]c3ccc(Cl)cc23)NC(=O)[C@H](CCC(=O)O)NC1=O	IL1RL2	reporter gene (SEAP), inhibitor, HEK-Blue IL-36R reporter	HEK-Blue IL-36R cells	1.23 µM, 6 h, together with: IL-36γ 100 ng/mL		100%
Cc1cnc2nc1Nc1cccc(c1)COC/C=C/COCc1cc(ccc1OCCN1CCOCC1)N2	MET (Homo sapiens, UniProt P08581, Y1235D)			concentration not given	baseline: untreated control	100%
COc1ccccc1-c1ccncc1C(=O)Nc1nnc(OCc2ccc(Cl)cc2)s1	DNA polymerase theta, helicase domain (POLQ, Homo sapiens, UniProt O75417)	ATPase activity, ADP-Glo		0.95 µM	baseline: 0 µM cpd	19%
C[C@](C(=O)NC1CCOCC1)(c1cncnc1)N(C(=O)[C@H](F)Cl)c1ccc(OC(F)(F)Cl)cc1	Kallikrein-13 (Homo sapiens, UniProt Q9UKR3)	enzyme activity, inhibitor		10 µM		104%
COC(=O)[C@@]1(C(C)C)C=C(C(=O)Nc2cccc(C(=O)Nc3ccc(Nc4nccc(-c5cccnc5)n4)c(C)c3)c2)C(=O)CC1	MAPK8	kinase activity, inhibitor		1.646 µM, unit not given, together with: 10 mM glutathione	baseline: no inhibitor	0.392
Nc1ncc(-c2cc(-c3cnn(CC(F)(F)F)c3)ncc2F)nc1C(=O)NC1CNCC(F)C1 (stereo not shown)	PRKACG (Homo sapiens, UniProt P22612)	enzyme activity		1 µM	baseline: DMSO control	101%
O=C=[N][Ru-4]123([n]4c5ccc(O)cc5c5c6c(c7cc(F)c[n+]1c7c54)C(=O)NC6=O)[S+]1CC[S+]2CC[S+]3CC1 (stereo not shown)	EGFR (Homo sapiens, UniProt P00533, L858R/T790M)	enzyme activity		100 nM, human enzyme, together with: 10 µM ATP	baseline: untreated	85%
N#Cc1cnc2sc(C(=O)O)cc2c1N1CCc2[nH]nc(C(=O)N[C@@H](CC(=O)NCCOCCN3CCOCC3)c3cccc(Br)c3)c2C1	IL1RL2	reporter gene (SEAP), inhibitor, HEK-Blue IL-36R reporter	HEK-Blue IL-36R cells	0.41 µM, 6 h, together with: IL36G 0.01 ng/mL		82.5%
CN(Cc1cc(C2CC2)on1)C(=O)c1cccc(-c2ccc3c(c2)CCO3)c1	Acetyl-CoA synthetase (Cryptococcus neoformans, UniProt J9VFT1)	enzyme activity, inhibitor, coupled pyrophosphate		781 nM		94.3% and 97.7%
COC(=O)[C@@]1(C)C=C(C(=O)Nc2cccc(C(=O)Nc3ccc(Nc4nccc(-c5cccnc5)n4)c(C)c3)c2)C(=O)CC1	MAPK8	enzyme activity, inhibitor		0.02032 µM, 18 h, unit not given, together with: GSH 10 mM pre-incubation	baseline: vehicle	0.557
Cc1cccc(-c2ccc3nc(NC(=O)C4CCCO4)nn3c2)c1 (stereo not shown)	MAPK15 (Homo sapiens, UniProt Q8TD08)	enzyme activity, Dundee kinase panel		10 µM		86%

Some of these lines once more:
Compound	target	test	system	setting	how to read	remaining activity
CN(Cc1cc(C2CC2)on1)C(=O)c1cccc(-c2ccc3c(c2)CCO3)c1	Acetyl-CoA synthetase (Cryptococcus neoformans, UniProt J9VFT1)	enzyme activity, inhibitor, coupled pyrophosphate		781 nM		94.3% and 97.7%
